Experimental data of several laboratories.
Lines come from different studies, so protocols differ. Numbers after ± are the reported error.

C[C@@H](NC(=O)N1C(=O)[C@H](Cc2ccnc(N)c2)[C@H]1C(=O)O)C1CCCCC1  incidence of diarrhea (healthy adult Chinese volunteers; continuous intravenous infusion, 2.25 mg/kg/h, 5-day infusion, CTCAE 5.0 grading): 0%
Cc1ccccc1C(=O)NN=Cc1ccc(O)c(Br)c1  C0 (normal C3H/HeN mouse, plasma; intravenous, 1.6 mg/kg): 0.125 µg/mL
CCN(CCO)CCCC(C)Nc1ccnc2cc(Cl)ccc12 (stereo not shown)  patients with adverse event (measured: Dizziness grade 1; newly diagnosed glioblastoma patients; oral, 200 mg/dose, with radiotherapy and temozolomide): 66%
C[C@]1(CO)Cc2ncn(-c3ccc(C#N)c(Cl)c3)c2C(=O)O1  drug-related Dizziness incidence (healthy humans; concentration not given, multiple dose part total): 4.4%
COc1cc2c(cc1OC)CN(CCc1ccc(NC(=O)c3cccc4c(=O)c5cccc(OC)c5[nH]c34)cc1)CC2  AUC(0-inf) (CD-1 mouse, male, plasma; intraperitoneal, 30 mg/kg): 23.3 µg·h/mL
COc1cc(C(=O)NC2CCN(C)CC2)c(F)cc1Nc1ncc(C(F)(F)F)c(Oc2cccc3c2C(=O)N(C)C3)n1  dose-normalised Cmax at steady state (human patients, plasma; oral, 50 mg once daily repeated, geometric mean): 8.61 nmol/L per mg
CO[C@H]1C[C@@H]2CC[C@@H](C)[C@@](O)(O2)C(=O)C(=O)N2CCCC[C@H]2C(=O)O[C@H]([C@H](C)C[C@@H]2CC[C@@H](OC(=O)NCCOCCOCCOCCOCCOCCOCCOCCOCCC(=O)N3CCc4cc(Cn5nc(-c6ccc7oc(N)nc7c6)c6c(N)ncnc65)ccc4C3)[C@H](OC)C2)C[C@@H](O)[C@H](C)/C=C(\C)[C@@H](O)[C@@H](OC)C(=O)[C@H](C)C[C@H](C)/C=C/C=C/C=C/1C  incidence of Vomiting TRAE (patients with advanced solid tumours; intravenous, dose not given, grade ≥3): 1.8%
CC(C)(C)c1cc(-n2nc3ccccc3n2)c(O)c(C(C)(C)C)c1  dermal uptake (exposure assessment; human, age 3-6 years, sunscreen): 1.91 ng/kg body weight/day
COc1ccc(C[C@@H]2NC(=O)[C@H]([C@@H](C)O)NC(=O)[C@@H]3[C@@H]4CCN3C(=O)[C@@H]3Cc5cn(c6ccc(F)cc56)CCCCCCN(Cc5ccc(cc5)CCNC(=O)[C@]5(C)CCCN5C2=O)C(=O)CCC(=O)N[C@@H](C)C(=O)N[C@H](CNC(=O)CCCCC[N+](C)(C)C)C(=O)N[C@@H](Cc2cccc(c2)CNC(=O)CO4)C(=O)N3)cc1  participants with adverse event (measured: Hematuria; humans; concentration not given, Study-001): 0%
O=C(O)CCCOc1ccc(F)cc1-c1cc(-c2ccccc2C(F)(F)F)n(-c2ccccc2)n1  organ weight (measured: thyroid; Crl:CD(SD) rats, male; iv, 25 µg/kg, 14 days): 23.8 ± 3.5 mg
CCCC(CCC)NC(=O)c1ccc2c(c1)OCO2  PCE/NCE ratio (Swiss albino CD-1 mice, male, bone marrow; intraperitoneal, 175 mg/kg, 48 h): 0.9
COc1ncccc1-c1cnn2ccc(N3CCN(C(=O)OC(C)C)CC3)nc12  drug concentration (mouse nerve ligation model, brain; oral, 10 mg/kg, 30 min after last dose, repeat dosing day 4): 6.2 µM
C=CC(=O)N1CCC(c2ccc(C(N)=O)c(-c3ccc(Oc4ccccc4)cc3)n2)CC1  incidence of fatal serious TRAEs (CTCAE 4.03; patients with relapsed/refractory MCL; oral, dose not given, total): 0%
COc1cc2c(Oc3ccc4[nH]c(C)cc4c3F)ccnc2cc1OCC1(N)CC1  grade 1 or 2 ALP elevation (paediatric recurrent refractory sarcoma; 10 mg): 25%
CC(C)n1c(C2CCNCC2)nc2c([N+](=O)[O-])c(Br)c(Br)cc21  AE leading to interruption (patients with AML; 125 mg, AST increased): 2%
O=C1Nc2cc3[nH]nc(-c4ccncc4)c3cc2CN1Cc1ccccc1  patients with acneiform dermatitis (CTCAE v4.03; advanced solid tumour patients; intravenous, 0.9 mg/kg, schedules 1/2): 0%
CC[C@H](C)[C@H](NC(=O)[C@H](Cc1ccccc1)NC(=O)[C@H](CCC(=O)O)NC(=O)[C@H](CCCNC(=N)N)NC(=O)[C@H](C)NC(=O)[C@H](C)NC(=O)[C@H](CCC(N)=O)NC(=O)[C@H](CCC(=O)O)NC(=O)[C@H](CCC(=O)O)NC(=O)[C@H](CC(C)C)NC(=O)[C@H](Cc1ccc(O)cc1)NC(=O)[C@H](CO)NC(=O)[C@H](CO)NC(=O)[C@@H](NC(=O)[C@H](CC(=O)O)NC(=O)[C@H](CO)NC(=O)[C@@H](NC(=O)[C@H](Cc1ccccc1)NC(=O)[C@@H](NC(=O)CNC(=O)[C@H](CCC(=O)O)NC(=O)[C@H](C)NC(=O)CCc1cnc[nH]1)[C@@H](C)O)[C@@H](C)O)C(C)C)C(=O)N[C@@H](C)C(=O)N[C@@H](Cc1c[nH]c2ccccc12)C(=O)N[C@@H](CC(C)C)C(=O)N[C@H](C(=O)N[C@@H](CCCNC(=N)N)C(=O)NCC(=O)N[C@@H](CCCNC(=N)N)C(=O)N[C@@H](CCCCNC(=O)COCCOCCNC(=O)COCCOCCNC(=O)CC[C@H](NC(=O)CCCCCCCCCCCCCCCCC(=O)O)C(=O)O)C(=O)NCC(=O)NCC(=O)N[C@@H](CO)C(=O)N[C@@H](CCCCNC(=O)[C@H](CCCCNC(=O)[C@H](CCCCNc1c(NCCCCCN(O)C(=O)CCC(=O)NCCCCCN(O)C(=O)CCC(=O)NCCCCCN(O)C(C)=O)c(=O)c1=O)Nc1c(NCCCCCN(O)C(=O)CCC(=O)NCCCCCN(O)C(=O)CCC(=O)NCCCCCN(O)C(C)=O)c(=O)c1=O)NC(=O)[C@H](CCCCNc1c(NCCCCCN(O)C(=O)CCC(=O)NCCCCCN(O)C(=O)CCC(=O)NCCCCCN(O)C(C)=O)c(=O)c1=O)Nc1c(NCCCCCN(O)C(=O)CCC(=O)NCCCCCN(O)C(=O)CCC(=O)NCCCCCN(O)C(C)=O)c(=O)c1=O)C(=O)O)C(C)C [zirconium-89 labelled]  tissue uptake (ex vivo gamma counting; male Sprague-Dawley rats, duodenum; intravenous, 1 nmol, 24 h): 0.411 %ID/g
O=c1ccc2ncc(=O)n3c2n1C[C@H]3CN1CCC(NCc2cc3c(cn2)OCCC3)CC1  incidence of device site dermatitis (healthy human volunteers; oral, 1500 mg, rifampicin cohort, together with: rifampicin 600 mg): 0%
CC(C)(O)c1cc(Nc2cc(Oc3cn(C4CC4)nc3C3CCOCC3)ccn2)ccn1  headache, grade ≥3 (grade 4 glioma expansion cohort; oral, 50 mg): 5%
CC1(C)[C@H](C(=O)OCc2cccc(Oc3ccccc3)c2)[C@@H]1C=C(Cl)Cl  enzyme contribution to clearance (measured: CYP2B6; human, age 5 years, recombinant human CYP2B6; 0.1 µM): 2.9%
CCc1ccc(CC/C=C/c2ccc3c(c2)C(=O)CC3)cc1  TG (Sprague-Dawley rat, male; oral, 120 mg/kg/day, 14 days): 0.56 mM
CC(C)[C@@H]1NC(=O)CNC(=O)[C@H](CC(N)=O)NC(=O)[C@H](CCCNC(=N)N)NC(=O)[C@H](Cc2ccc(O)cc2)NC(=O)[C@H](C(C)C)NC(=O)[C@@H](NC(=O)[C@@H](NC(=O)[C@H](CC(N)=O)NC(=O)[C@H](Cc2c[nH]c3ccccc23)NC(=O)[C@H](C)NC(=O)[C@H](Cc2ccccc2)NC(=O)CN)C(C)C)CSSC[C@@H](C(=O)N[C@@H](Cc2cnc[nH]2)C(=O)N[C@@H](CCCNC(=N)N)C(=O)N[C@@H](CCCNC(=N)N)C(=O)N[C@@H](C)C(=O)N[C@@H](CC(N)=O)C(N)=O)NC(=O)[C@H](C(C)C)NC(=O)[C@H](CCCNC(=N)N)NC1=O  blood urea nitrogen (ICR mice, serum; intraductal mammary, 5 mg/kg, day 5): 10.2 ± 0.62 mmol/L
CC(=O)c1c(C)c2cnc(Nc3ccc(C4CCN(CCS(C)(=O)=O)CC4)cn3)nc2n(C2CCCC2)c1=O  clearance (human, dose-escalation trial, plasma; oral, 100 mg twice daily, day 21, multiple doses): 1160 mL/min
Cn1cc(-c2nc(N[C@@H]3CCCC[C@@H]3N)c(F)c3c2C(=O)NC3)cn1  hemorrhagic adverse events (measured: Cerebral haemorrhage; patients with relapsed or refractory AML; oral, dose not given, all doses): 1 number of patients
CC(=O)N(C)[C@H]1CCN(C(=O)c2cnc3c(c2)C[C@](C)(c2ccc(F)cc2)N3)C1  adverse event duration (measured: eye irritation; human; oral, dose not given, together with: midazolam): 15 days
N=c1c2c(-c3ccccc3)c(-c3ccccc3)n(Cc3ccccc3)c2ncn1[C@H]1CC[C@H](O)CC1  AUC(0-t)/AUC(0-inf) (C57BL/6 mice, plasma; 3 mg/kg): > 95%
COc1ccc([C@@H](O)c2cc(-c3ncnc4cc(N5CCOCC5)ccc34)c(F)cc2Cl)nn1  hypomagnesaemia incidence (patients, advanced solid tumours; oral, 300 mg twice daily, treatment-emergent, together with: avelumab): 4%
COc1ccc(-c2c(-c3ccc(C#N)c(F)c3)nc(N3CCC(N)CC3)n(C)c2=O)cc1F  treatment-related adverse event incidence (measured: Vomiting; neuroendocrine neoplasm patients; oral, 60 mg, grade 3 to 4, dose expansion): 0%
COc1ccc(F)cc1C(=O)NCc1ccc(-c2nn([C@@H](C)C(F)(F)F)c(N)c2C(N)=O)cc1  tolerability (mouse, 4 lymphoma xenograft models; dose not given): not toxic
CC(C)c1nc(N(C)S(C)(=O)=O)nc(-c2ccc(F)cc2)c1/C=C/[C@@H](O)C[C@@H](O)CC(=O)O  incidence of nervous system disorders (healthy human subjects; oral, dose not given, study CL-0537 safety set): 0%
O=S(=O)(Nc1ccccc1)c1ccc(NC(=S)Nc2ccccc2)cc1  relative organ weight (female mice, lung; oral, 5 mg/kg daily 14 days; baseline: body weight): 1.12%
Cc1cccc(Cn2nc(C3CC3)c3c(NC(=O)c4cnc5cc(OCCN6CCN(C)CC6)ccn45)cccc32)n1  all-cause adverse events (CTCAE v4.03, measured: ALT increased; advanced solid tumour patients; oral, dose not given, all cohorts, together with: pembrolizumab IV every 3 weeks): 21.1%
C=CCNc1c(O)cc2c(O)c1C[C@@H](C)C[C@H](OC)[C@H](O)[C@@H](C)/C=C(\C)[C@H](OC(N)=O)[C@@H](OC)/C=C\C=C(/C)C(=O)N2  patients with infusion site pain (unresectable or metastatic STS, GIST, other; intravenous, 300 mg/m^2): 33%
C[C@@H]1NC(=O)[C@H](CCCCNC(=O)CO/N=C/C(=O)NCCCC[C@@H]2NC(=O)[C@@H](Cc3ccccc3)NC(=O)[C@H](CC(=O)O)NC(=O)CNC(=O)[C@H](CCCNC(=N)N)NC2=O)NC(=O)CNC(=O)[C@@H]2CCCN2C(=O)[C@H](CCCCNC(=O)CO/N=C/C(=O)NCCCC[C@@H]2NC(=O)[C@@H](Cc3ccccc3)NC(=O)[C@H](CC(=O)O)NC(=O)CNC(=O)[C@H](CCCNC(=N)N)NC2=O)NC(=O)[C@H](CCCCNC(=O)CCNC(=O)CCNC(=O)CCNC(=O)[C@H](CCCCN)NC(=O)[C@H](Cc2ccccc2)NC(=O)CNC(=O)CN2CCCNCCNCCCNCC2)NC(=O)[C@H](CCCCNC(=O)CO/N=C/C(=O)NCCCC[C@@H]2NC(=O)[C@@H](Cc3ccccc3)NC(=O)[C@H](CC(=O)O)NC(=O)CNC(=O)[C@H](CCCNC(=N)N)NC2=O)NC(=O)CNC(=O)[C@@H]2CCCN2C(=O)[C@H](CCCCNC(=O)CO/N=C/C(=O)NCCCC[C@@H]2NC(=O)[C@@H](Cc3ccccc3)NC(=O)[C@H](CC(=O)O)NC(=O)CNC(=O)[C@H](CCCNC(=N)N)NC2=O)NC1=O [copper-64 labelled]  tissue uptake (normal mice, lung; intravenous, 0.74 MBq, 3 h post-injection): 9.44 ± 1.54 %ID/g
